# Results from different studies.
# ± gives the spread as reported.
SMILES,target or system,test,system,conditions,scale,quantity,result
[123I]c1ccc2nc(-c3ccc(-n4ccnn4)nc3)cn2c1,,,"male Wistar rat, kidney","intravenous, 4 MBq, 24 h",,tracer uptake,0.011 %ID/g
COc1cccc(OC)c1-c1cc(C(=O)NC2(C(=O)O)C3CC4CC(C3)CC2C4)nn1-c1ccc(C(=O)N(C)CCOCCOCCN(C)C(=O)[C@H](CCCCNC(=O)[C@H](CC(C)C)NC(=O)C2OC2C(=O)O)NC(=O)CN2CCN(CC(=O)[O-])CCN(CC(=O)[O-])CCN(CC(=O)[O-])CC2)cc1C(C)C.[177Lu+3] (mixture of isomers),,,mouse HT-29 xenograft,"72 h, biodistribution",baseline: tumour over large intestine,tumour-to-large intestine ratio,21.4
Cc1ccc(OCC(=O)N(Cc2cccs2)c2ccn[nH]2)cc1,,,monkey plasma,"750 ng/mL, 1 h, 37 °C, unit not given",baseline: time zero,remaining compound,107
Cc1cccc(Cn2ncc3c4cc(F)c(CN(C)C)cc4n(C)c3c2=O)n1,,,"Sprague-Dawley rat, plasma","intravenous, 5 mg/kg",,AUC(0-t),1930 ng·h/mL
CCCCC/C=C\CCCO[Si](CCCCCN(C)C)(OCCC/C=C\CCCCC)OCCC/C=C\CCCCC,,,,"pH 7.5, formulated",,zeta potential,0.46 mV
C=CC(=O)Nc1cc(Nc2nccc(-c3cn(C)c4ccccc34)n2)c(OC)cc1N(C)CCNC,,storage stability,human plasma,"10 d, -80 °C, LLOQ level",,recovery,92.7%
Cc1ncsc1-c1ccc(C(C)NC(=O)C2CC(O)CN2C(=O)C(NC(=O)CCCCCCCCCCN2CCCC(Nc3ncc(Cl)c(Nc4ccccc4S(=O)(=O)C(C)C)n3)C2)C(C)(C)C)cc1 (stereo not shown),22Rv1,"RNA-seq, refers to: ZNF772 mRNA",,concentration not given,baseline: DMSO,log2 fold change,-1.31
CN1CCCC1C(=O)NC(Cc1ccc(-n2cccn2)cc1)B(O)O (stereo not shown),,,Caco-2,,,Papp B→A,4.9 ×10⁻⁶ cm/s
Nc1cccc2ccc(/C=C/C(=O)c3ccc(C(F)(F)F)cc3)cc12,,,toluene,20 °C,,excitation maximum,430 nm
C=C(NC(=O)c1csc(-c2nc3c(cc2O)-c2nc(cs2)C(=O)NC(C(C)O)C(=O)NC(=C(C)OC)c2nc(cs2)C(=O)NC2c4nc(cs4)C(=O)NC(COC(=O)c4c5c6c(cccc6n4O)COC(=O)C(OC4CC(C)(O)C(N(C)C)C(C)O4)C2OC5)c2nc-3cs2)n1)C(N)=O (stereo not shown),,,"cynomolgus monkey, both sexes, plasma","intravenous infusion, 3 mg/kg, multiple doses, day 7",,AUC(0-last),23400 ± 6190 ng·h/mL
CCn1nc(Cl)c2c1-c1cnc(N)c(c1)O[C@H](C)c1cc(F)ccc1-c1nn(C)cc1C2,,,"bovine, serum",,,fraction unbound,0.32
O=C(Nc1cnccc1-c1ccc([18F])cc1)c1ccnc(NC(=O)C2CC2)c1,,ex vivo gamma counting,"FVB/NJ mice, both sexes, adipose tissue","intravenous, 120 min",,mean SUV,0.14
C=CC[C@@H]1/C=C(\C)C[C@H](C)C[C@H](OC)[C@H]2O[C@@](O)(C(=O)C(=O)N3CCCC[C@H]3C(=O)O[C@H](/C(C)=C/[C@@H]3CC[C@@H](O)[C@H](OC)C3)[C@H](C)[C@@H](O)CC1=O)[C@H](C)C[C@@H]2OC,,,"kidney transplant recipients, CYP3A5 *1/*1 and *1/*3, whole blood","oral, dose not given, late phase, limited sampling",,dose-normalized AUC(0-12h),95 ± 42 ng·h/mL
